{"data": "Measured values from different studies", "note": "Each numbered part is a random draw from the data of one study; scales do not carry over between parts. Values joined by “and” are separate records of one study, mostly repeats; a detail may differ.", "chain of UniProt Q8NE63 (whole entry, looked up)": "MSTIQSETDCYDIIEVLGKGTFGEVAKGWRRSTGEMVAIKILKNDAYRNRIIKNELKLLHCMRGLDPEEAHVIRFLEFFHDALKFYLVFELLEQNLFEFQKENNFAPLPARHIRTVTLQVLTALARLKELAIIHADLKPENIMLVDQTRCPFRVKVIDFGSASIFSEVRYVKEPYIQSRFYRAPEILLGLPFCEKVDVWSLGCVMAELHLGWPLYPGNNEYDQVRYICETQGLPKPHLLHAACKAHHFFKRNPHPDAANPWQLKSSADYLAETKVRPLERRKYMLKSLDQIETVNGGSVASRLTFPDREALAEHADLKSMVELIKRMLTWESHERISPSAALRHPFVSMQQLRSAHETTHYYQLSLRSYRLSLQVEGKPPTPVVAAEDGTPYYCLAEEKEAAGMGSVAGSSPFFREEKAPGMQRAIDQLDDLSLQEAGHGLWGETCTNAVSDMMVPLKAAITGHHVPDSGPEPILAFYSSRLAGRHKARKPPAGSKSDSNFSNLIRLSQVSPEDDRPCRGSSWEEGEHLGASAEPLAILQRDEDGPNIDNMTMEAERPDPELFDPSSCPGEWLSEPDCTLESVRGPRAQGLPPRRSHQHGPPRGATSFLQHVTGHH", "chain of UniProt Q8N4C8 (whole entry, looked up)": "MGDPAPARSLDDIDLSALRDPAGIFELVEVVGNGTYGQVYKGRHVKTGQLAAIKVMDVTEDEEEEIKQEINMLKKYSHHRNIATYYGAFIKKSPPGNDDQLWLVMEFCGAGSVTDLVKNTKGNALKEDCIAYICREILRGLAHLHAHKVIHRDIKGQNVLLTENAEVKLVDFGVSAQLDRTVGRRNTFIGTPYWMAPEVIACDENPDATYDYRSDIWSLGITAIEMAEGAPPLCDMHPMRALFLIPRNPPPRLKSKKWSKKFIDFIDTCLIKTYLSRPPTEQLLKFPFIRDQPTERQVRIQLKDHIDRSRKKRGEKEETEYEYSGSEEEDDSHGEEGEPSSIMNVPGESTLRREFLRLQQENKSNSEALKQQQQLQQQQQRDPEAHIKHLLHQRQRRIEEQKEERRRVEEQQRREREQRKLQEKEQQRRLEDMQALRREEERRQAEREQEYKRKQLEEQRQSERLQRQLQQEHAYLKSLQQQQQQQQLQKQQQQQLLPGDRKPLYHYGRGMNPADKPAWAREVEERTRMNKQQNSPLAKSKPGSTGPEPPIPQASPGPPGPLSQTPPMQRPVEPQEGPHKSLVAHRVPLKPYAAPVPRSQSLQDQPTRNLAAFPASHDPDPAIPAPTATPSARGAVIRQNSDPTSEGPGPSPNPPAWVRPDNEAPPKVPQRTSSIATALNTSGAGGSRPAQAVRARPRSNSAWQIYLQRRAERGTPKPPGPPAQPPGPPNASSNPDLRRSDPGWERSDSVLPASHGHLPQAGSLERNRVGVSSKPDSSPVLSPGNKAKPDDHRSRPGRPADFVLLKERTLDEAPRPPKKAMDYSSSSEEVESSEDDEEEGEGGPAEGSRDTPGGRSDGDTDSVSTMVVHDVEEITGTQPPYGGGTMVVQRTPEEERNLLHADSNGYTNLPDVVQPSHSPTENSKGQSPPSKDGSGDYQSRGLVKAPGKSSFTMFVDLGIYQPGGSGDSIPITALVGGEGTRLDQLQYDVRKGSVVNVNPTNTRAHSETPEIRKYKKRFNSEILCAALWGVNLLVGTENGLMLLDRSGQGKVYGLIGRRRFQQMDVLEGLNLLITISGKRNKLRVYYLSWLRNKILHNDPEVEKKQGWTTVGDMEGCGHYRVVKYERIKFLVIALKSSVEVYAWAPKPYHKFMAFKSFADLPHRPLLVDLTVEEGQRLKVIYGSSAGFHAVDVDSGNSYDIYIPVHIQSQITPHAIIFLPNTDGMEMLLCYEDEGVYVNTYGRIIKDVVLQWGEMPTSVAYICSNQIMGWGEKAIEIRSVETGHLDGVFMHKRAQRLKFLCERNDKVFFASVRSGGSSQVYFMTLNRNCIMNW"}
{"data": "Block 1", "cell line": "UACC-903 melanoma"}
{"Structure (SMILES)": "OC1(c2ccc(Cl)c(C(F)(F)F)c2)CCN(CCCC(c2ccc(F)cc2)c2ccc(F)cc2)CC1", "IC50 [µM]": 4.6}
{"Structure (SMILES)": "OCCN1CCN(CCCN2c3ccccc3Sc3ccc(Cl)cc32)CC1", "IC50 [µM]": 9.7}
{"Structure (SMILES)": "CN(C)CCCN1c2ccccc2Sc2ccc(Cl)cc21", "IC50 [µM]": 16.4}
{"Structure (SMILES)": "CC(C)(C)c1ccc(C(O)CCCN2CCC(C(O)(c3ccccc3)c3ccccc3)CC2)cc1 (stereo not drawn)", "IC50 [µM]": 4.6}
{"data": "Block 2", "target": "5-hydroxytryptamine receptor 1A (HTR1A, Homo sapiens, UniProt P08908)", "read-out": "ligand displacement", "technique": "radioligand", "concentration": "10 µM", "chain of UniProt P08908 (whole entry, looked up)": "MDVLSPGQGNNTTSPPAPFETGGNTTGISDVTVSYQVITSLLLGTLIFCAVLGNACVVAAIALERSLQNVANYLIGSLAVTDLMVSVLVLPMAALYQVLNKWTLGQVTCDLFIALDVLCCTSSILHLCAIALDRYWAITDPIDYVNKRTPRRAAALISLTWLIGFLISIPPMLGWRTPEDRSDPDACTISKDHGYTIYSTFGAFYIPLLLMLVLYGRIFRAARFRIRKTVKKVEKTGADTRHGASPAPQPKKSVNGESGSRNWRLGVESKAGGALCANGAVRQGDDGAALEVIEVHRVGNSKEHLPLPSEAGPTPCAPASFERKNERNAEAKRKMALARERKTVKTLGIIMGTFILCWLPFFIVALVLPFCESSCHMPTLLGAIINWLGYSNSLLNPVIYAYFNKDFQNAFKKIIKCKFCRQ"}
{"SMILES": "CNC(=O)Nc1ccc2c(c1)CC[C@]21OC(=O)N(CC(=O)N(Cc2ccc(F)cc2)[C@@H](C)C(F)(F)F)C1=O", "inhibition [%]": 6.87}
{"SMILES": "C[C@H](c1cccc(C#N)c1)n1cc(Cl)cc(C(N)=O)c1=N", "inhibition [%]": 0.16}
{"SMILES": "CN1CCN(c2cnc3c(C4CCN(C(=O)c5ccc(OC(F)(F)F)cc5N)CC4)ncnc3c2)CC1", "inhibition [%]": 7.38}
{"SMILES": "O=C1CCc2cc(Nc3cc(OC4CCOCC4)c([N+](=O)[O-])cc3Cl)ccc2N1", "inhibition [%]": -4.09}
{"SMILES": "COc1cc(-c2cn(C3CCc4c(F)cccc4N(CC(F)(F)F)C3=O)nn2)ccc1-n1cnc(C)c1 (stereo not drawn)", "inhibition [%]": 19.4}
{"SMILES": "CN(C)C(=O)Cn1cc(-c2nc([C@@](C)(c3ccc(-c4cnc(N)nc4)cc3)C3CC3)no2)cn1", "inhibition [%]": 6.78}
{"SMILES": "C[C@@]1(Cc2ccc(C#N)cc2)C(=O)N(c2cc(Cl)cc(Cl)c2)c2ncc(C(=O)NC3(c4nc(C5CCC5)no4)CC3)n21", "inhibition [%]": -16.6}
{"SMILES": "C[C@H](c1ccc(F)cc1)N(Cc1cccc(C(=O)O)c1)C(=O)c1cnc2ccccc2c1", "inhibition [%]": -16.8}
{"SMILES": "CC(C)(C)OC(=O)N1CCCC1CNC1CCC(c2cc(F)ccc2F)(S(=O)(=O)c2ccc(Cl)cc2)CC1 (stereo not drawn)", "inhibition [%]": 66.3}
{"SMILES": "Nc1cnc(N2CCc3cc(S(=O)(=O)Nc4c(F)cc(Cl)cc4F)cc(N4CCCC4=O)c32)nc1", "inhibition [%]": 4.45}
{"SMILES": "CCC(=NO)C(C)=Cc1ccc(F)c(C)c1", "inhibition [%]": 1.12}
{"SMILES": "CC(=O)N1CCC(c2ccc(C(=O)NC3=NCCN3)cc2C(F)(F)F)CC1", "inhibition [%]": -15.7}
{"SMILES": "COc1cc(-c2cn(C3CCc4ccccc4N(CC(F)(F)F)C3=O)nn2)ccc1-n1ccc(C)n1 (stereo not drawn)", "inhibition [%]": 1.18}
{"SMILES": "COc1ccc2c(O[C@@H]3C[C@H]4C(=O)N[C@]5(C(=O)O)CC5/C=C\\CCCCC[C@H](NC(=O)OC5CCCC5)C(=O)N4C3)cc(-c3csc(NC(=O)C(C)C)n3)nc2c1C (stereo partly drawn)", "inhibition [%]": -6.16}
{"SMILES": "CCC(=O)N[C@@H]1CC[C@H](C(=O)N(C)c2ccc(-c3nc4ccccc4o3)cc2)C1", "inhibition [%]": 8.28}
{"SMILES": "Cc1cc(-n2nc(Cc3cc(F)cc(C(F)(F)F)c3)nc2C)ccc1C(N)=O", "inhibition [%]": -4.42}
{"SMILES": "Cn1cncc1[C@@](O)(COc1ccc(C#N)cc1-c1ccc(OC(F)(F)F)cc1)c1ccc(C#N)cc1", "inhibition [%]": -6.52}
{"data": "Block 3", "species": "human", "medium": "microsomes or S9", "concentration": "2 µM", "time": "0.5 h"}
{"SMILES": "Cn1cc(C(NC(=O)c2c[nH]c3c(F)cccc3c2=O)[C@H]2C[C@@H](O)C2)cn1 (stereo partly drawn)", "remaining compound [%]": "> 100"}
{"SMILES": "Cc1ccc(S(=O)(=O)N2OC(c3ccc(Cl)cc3)(c3ccc(Cl)cc3)C=C2c2ccccc2)cc1", "remaining compound [%]": 69.9}
{"SMILES": "N#Cc1cc(F)ccc1S(=O)(=O)N1CCCO1", "remaining compound [%]": 93.3}
{"SMILES": "CC(C)CCn1c(N2CCNCC2)nc2c1c(O)nc(=O)n2C", "remaining compound [%]": 92.4}
{"data": "Block 4", "Structure (SMILES)": "C=CC(=O)N1CCC([C@@H]2CCNc3c(C(N)=O)c(-c4ccc(Oc5ccccc5)cc4)nn32)CC1", "read-out": "enzyme activity", "mode": "inhibitor", "concentration": "1 µM"}
{"target": "MINK1 (Homo sapiens, UniProt Q8N4C8)", "inhibition": "53%"}
{"target": "HIPK4 (Homo sapiens, UniProt Q8NE63)", "inhibition": "2%"}
{"target": "SYK (Homo sapiens, UniProt P43405)", "inhibition": "0%"}
{"data": "Block 5", "Structure (SMILES)": "CC(=O)N[C@@H](Cc1c[nH]c2ccccc12)C(=O)N[C@@H](CCC(=O)C=[N+]=[N-])C(=O)OC(C)C"}
{"species": "CES1-/- mice, OVA-expressing MC-38 tumour", "dose": "dose not given", "time": "day 17 after injection", "tumour volume": "0 mm3 and 66 mm3 and 126 mm3 and 21 mm3"}
{"species": "mouse, EL4 tumour", "route": "subcutaneous", "dose": "0.1 mg/kg", "time": "day 15", "tumour volume": "883 mm3 and 863 mm3 and 616 mm3 and 647 mm3 and 2040 mm3 and 128 mm3"}
{"species": "mice, MC-38 tumour rechallenge", "dose": "1 mg/kg", "time": "day 71 after injection", "tumour volume": "0 mm3"}
{"species": "mouse, EL4 tumour", "route": "subcutaneous", "dose": "0.3 mg/kg", "time": "day 11", "tumour volume": "614 mm3 and 202 mm3 and 871 mm3 and 697 mm3 and 429 mm3 and 63.2 mm3"}
{"data": "Further values, each from its own experiment", "concentration": "100 µM", "time": "60 h"}
{"SMILES": "CN1C(C(=O)Nc2ccccn2)=C(O)c2ccccc2S1(=O)=O", "cell line": "A-375", "viability [%]": 90.6}
{"SMILES": "COCCCC/C(=N\\OCCN)c1ccc(C(F)(F)F)cc1", "cell line": "HaCaT", "viability [%]": 14.3}
{"SMILES": "CN[C@@H]1[C@H](O[C@H]2[C@H](O[C@H]3[C@H](O)[C@@H](O)[C@H](NC(=N)N)[C@@H](O)[C@@H]3NC(=N)N)O[C@@H](C)[C@]2(O)CO)O[C@@H](CO)[C@H](O)[C@H]1O", "cell line": "HaCaT", "viability [%]": 126}
{"SMILES": "CC(=O)Oc1c(C)c(C)c2c(c1C)CCC(C)(CCC[C@H](C)CCC[C@H](C)CCCC(C)C)O2 (stereo partly drawn)", "cell line": "HaCaT", "viability [%]": 137}
{"note": "For quick reference, copied from above (block 3):"}
{"SMILES": "N#Cc1cc(F)ccc1S(=O)(=O)N1CCCO1", "remaining compound [%]": 93.3}
{"SMILES": "Cn1cc(C(NC(=O)c2c[nH]c3c(F)cccc3c2=O)[C@H]2C[C@@H](O)C2)cn1 (stereo partly drawn)", "remaining compound [%]": "> 100"}
{"SMILES": "CC(C)CCn1c(N2CCNCC2)nc2c1c(O)nc(=O)n2C", "remaining compound [%]": 92.4}
{"SMILES": "Cc1ccc(S(=O)(=O)N2OC(c3ccc(Cl)cc3)(c3ccc(Cl)cc3)C=C2c2ccccc2)cc1", "remaining compound [%]": 69.9}
